Measurements from different studies.
Parts stem from different laboratories: compare values within a part only.

Series 1 — technique: universal PBM; molecule type: double-stranded DNA, one strand shown; matrix: in vitro; tested at: 600 nM; reading: higher = stronger binding; measurement: E-score
Target: Sal-like protein 4, full length isoform A (SALL4, Homo sapiens, UniProt Q9UJQ4, residues 1-1053)
Sequence of UniProt Q9UJQ4 (whole entry, looked up): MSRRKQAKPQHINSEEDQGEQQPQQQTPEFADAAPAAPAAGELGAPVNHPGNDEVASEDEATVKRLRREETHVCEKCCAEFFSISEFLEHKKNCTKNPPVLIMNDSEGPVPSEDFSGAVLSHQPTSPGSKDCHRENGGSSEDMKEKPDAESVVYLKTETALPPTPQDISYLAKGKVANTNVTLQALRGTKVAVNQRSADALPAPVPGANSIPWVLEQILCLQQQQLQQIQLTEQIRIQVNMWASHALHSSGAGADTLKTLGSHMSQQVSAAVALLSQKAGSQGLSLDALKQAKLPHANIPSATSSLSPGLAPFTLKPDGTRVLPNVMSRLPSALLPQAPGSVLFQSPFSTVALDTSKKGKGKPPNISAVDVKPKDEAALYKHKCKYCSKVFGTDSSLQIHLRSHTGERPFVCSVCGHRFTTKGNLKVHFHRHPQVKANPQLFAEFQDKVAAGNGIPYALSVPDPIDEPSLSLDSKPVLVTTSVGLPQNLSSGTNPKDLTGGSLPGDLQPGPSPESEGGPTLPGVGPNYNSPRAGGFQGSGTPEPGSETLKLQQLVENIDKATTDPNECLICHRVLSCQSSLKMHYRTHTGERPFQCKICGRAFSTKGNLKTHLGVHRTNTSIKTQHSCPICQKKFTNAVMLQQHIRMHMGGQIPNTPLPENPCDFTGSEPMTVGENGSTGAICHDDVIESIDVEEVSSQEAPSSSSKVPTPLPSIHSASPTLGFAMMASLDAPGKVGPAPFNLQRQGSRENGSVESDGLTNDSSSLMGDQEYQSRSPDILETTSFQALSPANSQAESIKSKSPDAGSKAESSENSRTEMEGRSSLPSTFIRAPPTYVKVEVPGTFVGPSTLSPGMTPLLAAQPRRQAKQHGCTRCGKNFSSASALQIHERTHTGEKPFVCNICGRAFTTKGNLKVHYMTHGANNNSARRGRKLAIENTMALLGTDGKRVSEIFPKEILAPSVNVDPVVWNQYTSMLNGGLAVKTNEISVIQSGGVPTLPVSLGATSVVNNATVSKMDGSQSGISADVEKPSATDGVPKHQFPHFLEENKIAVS
Notes: 8-mer, flanks averaged, mean of replicates
Oligonucleotide = CGAGTCGC; value = -0.309
Oligonucleotide = TAGACCGA; value = -0.06
Oligonucleotide = CGCATTCA; value = 0.149
Oligonucleotide = AAATGTAC; value = 0.27
Oligonucleotide = ATCAAACC; value = 0.0354

Series 2 — technique: protein-binding microarray; molecule type: double-stranded DNA, one strand shown; matrix: in vitro; tested at: not given; reading: higher = stronger binding; measurement: E-score
Target: Protein C-ets-1 (ETS1, Homo sapiens, UniProt P14921, residues 1-441, full length assumed)
Notes: k-mer, scored over probes, only values ≥0.25
Target sequence (chain): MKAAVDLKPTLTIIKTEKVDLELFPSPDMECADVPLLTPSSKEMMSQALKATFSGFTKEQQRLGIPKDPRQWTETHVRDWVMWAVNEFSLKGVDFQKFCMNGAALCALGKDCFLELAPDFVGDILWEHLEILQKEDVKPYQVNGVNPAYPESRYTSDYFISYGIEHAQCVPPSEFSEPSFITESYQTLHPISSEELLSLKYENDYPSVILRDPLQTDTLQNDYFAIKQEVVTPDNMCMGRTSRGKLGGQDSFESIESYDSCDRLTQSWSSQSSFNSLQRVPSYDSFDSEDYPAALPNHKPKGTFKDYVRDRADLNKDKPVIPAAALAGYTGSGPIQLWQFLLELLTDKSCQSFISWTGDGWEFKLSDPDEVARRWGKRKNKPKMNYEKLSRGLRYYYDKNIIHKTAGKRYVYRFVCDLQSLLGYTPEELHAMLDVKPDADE
Oligonucleotide = GCGGGAAA; value = 0.367
Oligonucleotide = CCGGAATA; value = 0.374
Oligonucleotide = GGGCGGGA; value = 0.36
Oligonucleotide = GCTCTTCC; value = 0.284
Oligonucleotide = AAACCGGA; value = 0.447

Series 3 — technique: protein binding microarray; molecule type: double-stranded DNA, one strand shown; matrix: in vitro; tested at: not given; reference: not given; reading: higher = stronger binding; measurement: E-score
Target: Histone acetyltransferase KAT6A, winged helix 2, GST fusion (KAT6A, Homo sapiens, UniProt Q92794, residues 85-181)
Notes: 8-mer, flanks averaged, mean of 2 arrays, mostly near background
Residues (chain): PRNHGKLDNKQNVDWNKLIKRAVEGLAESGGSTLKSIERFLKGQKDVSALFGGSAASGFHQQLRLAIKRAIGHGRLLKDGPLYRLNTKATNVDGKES
Oligonucleotide = AGGTTACG; value = -0.0823
Oligonucleotide = CATGTCGC; value = -0.206
Oligonucleotide = AAGGAGGT; value = -0.1
Oligonucleotide = CATAAGGC; value = 0.0241
Oligonucleotide = CATTAAGA; value = -0.181
Oligonucleotide = ACTTCCTC; value = -0.0916

Single results of other studies
Substance = PhoQ, residues 284 288 289 292 302 303 TTSMTC; target = PhoP, residues 12 14 15 18 19 LHSVW (Escherichia coli, UniProt P23836); test = Sort-seq, refers to: YFP reporter; system = E. coli; conditions = PhoQ-PhoP variant library, with: 10 µM Mg2+; how to read = reference: high Mg2+ state, higher = stronger signaling; measurement = fold induction; value = 3.02

Excerpt of the above (series 3):
Oligonucleotide = AGGTTACG; value = -0.0823
Oligonucleotide = AAGGAGGT; value = -0.1
